# Measurements pooled from the literature.
# Each line is one published result; not all experiments were run side by side. Numbers after ± are the reported error.
# Technique: steady-state kinetics
# B1: POLK W214Y/W392H (Homo sapiens, UniProt Q9UBT6); chain MGLNDNKAGMEGLDKEKINKIIMEATKGSRFYGNELKKEKQVNQRIENMMQQKAQITSQQLRKAQLQVDRFAMELEQSRNLSNTIVHIDMDAFYAAVEMRDNPELKDKPIAVGSMSMLSTSNYHARRFGVRAAMPGFIAKRLCPQLIIVPPNFDKYRAVSKEVKEILADYDPNFMAMSLDEAYLNITKHLEERQNYPEDKRRYFIKMGSSVENDNPGKEVNKLSEHERSISPLLFEESPSDVQPPGDPFQVNFEEQNNPQILQNSVVFGTSAQEVVKEIRFRIEQKTTLTASAGIAPNTMLAKVCSDKNKPNGQYQILPNRQAVMDFIKDLPIRKVSGIGKVTEKMLKALGIITCTELYQQRALLSLLFSETSHHYFLHISLGLGSTHLTRDGERKSMSVERTFSEINKAEEQYSLCQELCSELAQDLQKERLKGRTVTIKLKNVNFEVKTRASTVSSVVSTAEEIFAIAKELLKTEIDADFPHPLRLRLMGVRISSFPNEEDRKHQQ
# B2: cyc1 L72V (Streptomyces coelicolor, UniProt Q9K499); chain MHAFPHGTTATPTAIAVPPSLRLPVIEAAFPRQLHPYWPKLQETTRTWLLEKRLMPADKVEEYADGLCYTDVMAGYYLGAPDEVLQAIADYSAWFFVWDDRHDRDIVHGRAGAWRRLRGLLHTALDSPGDHLHHEDTLVAGFADSVRRLYAFLPATWNARFARHFHTVIEAYDREFHNRTRGIVPGVEEYLELRRLTFAHWIWTDLLEPSSGCELPDAVRKHPAYRRAALLSQEFAAWYNDLCSLPKEIAGDEVHNLGISLITHHSLTLEEAIGEVRRRVEECITEFLAVERDALRFADELADGTVRGKELSGAVRANVGNMRNWFSSVYWFHHESGRYMVDSWDDRSTPPYVNNEAAGEK
# B3: protein Y93W (Thermus thermophilus, UniProt Q5SKR5); chain MSAPKPFVIGIAGGTASGKTTLAQALARTLGERVALLPMDHYYKDLGHLPLEERLRVNYDHPDAFDLALYLEHAQALLRGLPVEMPVYDFRAWTRSPRRTPVRPAPVVILEGILVLYPKELRDLMDLKVFVDADADERFIRRLKRDVLERGRSLEGVVAQYLEQVKPMHLHFVEPTKRYADVIVPRGGQNPVALEMLAAKALARLARMGAA
# B4: BaiA1 (Clostridium scindens, UniProt P07914); chain MKLVQDKITIITGGTRGIGFAAAKLFIENGAKVSIFGETQEEVDTALAQLKELYPEEEVLGFAPDLTSRDAVMAAVGTVAQKYGRLDVMINNAGITMNSVFSRVSEEDFKNIMDINVNGVFNGAWSAYQCMKDAKQGVIINTASVTGIYGSLSGIGYPTSKAGVIGLTHGLGREIIRKNIRVVGVAPGVVDTDMTKGLPPEILEDYLKTLPMKRMLKPEEIANVYLFLASDLASGITATTISVDGAYRP
# B5: enzyme (Mus musculus, UniProt P08680); chain DRKSKIVQRAAPEVQEDVKTFKTDLLSTMDSTTRSHSFPSFQEPEQTEGAVPHLIQNNMTGSQAFGYDQFFRDKIMEKKQDHTYRVFKTVNRWANAYPFAQHFSEASMASKDVSVWCSNDYLGISRHPRVLQAIEETLKNHGAGAGGTRNISGTSKFHVELEQELAELHQKDSALLFSSCFVANDSTLFTLAKLLPGCEIYSDAGNHASMIQGIRNSGAAKFVFRHNDPGHLKKLLEKSDPKTPKIVAFETVHSMDGAICPLEELCDVAHQYGALTFVDEVHAVGLYGARGAGIGERDGIMHKLDIISGTLGKAFGCVGGYIASTRDLVDMVRSYAAGFIFTTSLPPMVLSGALESVRLLKGEEGQALRRAHQRNVKHMRQLLMDRGFPVIPCPSHIIPIRVGNAALNSKICDLLLSKHSIYVQAINYPTVPRGEELLRLAPSPHHSPQMMENFVEKLLLAWTEVGLPLQDVSVAACNFCHRPVHFELMSEWERSYFGNMGPQYVTTYA
# B6: vioC (Streptomyces vinaceus, UniProt Q6WZB0); chain MTESPTTHHGAAPPDSVATPVRPWSEFRLTPAEAAAAAALAARCAQRYDETDGPEFLLDAPVIAHELPRRLRTFMARARLDAWPHALVVRGNPVDDAALGSTPVHWRTARTPGSRPLSFLLMLYAGLLGDVFGWATQQDGRVVTDVLPIKGGEHTLVSSSSRQELGWHTEDAFSPYRADYVGLLSLRNPDGVATTLAGVPLDDLDERTLDVLFQERFLIRPDDSHLQVNNSTAQQGRVEFEGIAQAADRPEPVAILTGHRAAPHLRVDGDFSAPAEGDEEAAAALGTLRKLIDASLYELVLDQGDVAFIDNRRAVHGRRAFQPRYDGRDRWLKRINITRDLHRSRKAWAGDSRVLGQR
# B7: HCT R356E (Coleus scutellarioides, UniProt E8ZAP2); chain MKIHVRDSTLVRPSAATPAVSLWNSNVDLVVPNFHTPSVYFYRPSGADNFFDTAVMKAALGRALVSFYPMAGRLKRDEDGRVEIDCNAEGVLFVEAESDGTVDDYGDFAPSLELRRLIPAVDYSQGISAYPLLVLQVTFFKCGGVSLGVGMQHHAADGFSGLHFINTWSDMARGLDITLPPFIDRTLLSARDPPQPQFKHVEYQPPPAMKTYEPAETVVSIFKLTKDQLTTLKAKSKEDGNTTTYSSYEMLSGHVWRCTCLARGLPEEQETKLYIATDGRSRLQPQLPPGYFGNVIFTATPLAVAGDLGSKPVWYAASKIHDALARMDNDYLRSALDFLELQPDLKALVRGAHTFECPNLGITSWVRLPIHDADFGWGRPIFMGPGGIAYEGLSFVLPSPTNDGSLSVAISLQAEHMKLFEKLLYQI
# B8: Nudt8 (Mus musculus, UniProt Q9CR24); chain MLPDGLSAEDEQRCRQLLARTTARLRSRPAAAAVLVPLCLVRGVPALLYTLRSSRLVGRHKGEVSFPGGKCDPDDQDVIHTALRETQEELGLEVPKEHVWGVLQPVYDREKATIVPVLANVGPLDLQSLRPNLEEVDEVFEMSLAHLLQTQNQGYTHFCQGGHFSYTLPVFLHGPHRVWGLTAVITELTLKLLAPGFYQPSLAVPELPRG
# B9: SUOX P184A (Homo sapiens, UniProt P51687); chain ESTHIYTKEEVSSHTSPETGIWVTLGSEVFDVTEFVDLHPGGPSKLMLAAGGPLEPFWALYAVHNQSHVRELLAQYKIGELNPEDKVAPTVETSDPYADDPVRHAALKVNSQRPFNAEPPPELLTENYITPNPIFFTRNHLPVPNLDPDTYRLHVVGAPGGQSLSLSLDDLHNFPRYEITVTLQCAGNRRSEMTQVKEVKGLEWRTGAISTARWAGARLCDVLAQAGHQLCETEAHVCFEGLDSDPTGTAYGASIPLARAMDPEAEVLLAYEMNGQPLPRDHGFPVRVVVPGVVGARHVKWLGRVSVQPEESYSHWQRRDYKGFSPSVDWETVDFDSAPSIQELPVQSAITEPRDGETVESGEVTIKGYAWSGGGRAVIRVDVSLDGGLTWQVAKLDGEEQRPRKAWAWRLWQLKAPVPAGQKELNIVCKAVDDGYNVQPDTVAPIWNLRGVLSNAWHRVHVYVSP
# B10: GDP-perosamine synthase (Caulobacter vibrioides, UniProt Q9A9H3); chain MSDLPRISVAAPRLDGNERDYVLECMDTTWISSVGRFIVEFEKAFADYCGVKHAIACNNGTTALHLALVAMGIGPGDEVIVPSLTYIASANSVTYCGATPVLVDNDPRTFNLDAAKLEALITPRTKAIMPVHLYGQICDMDPILEVARRHNLLVIEDAAEAVGATYRGKKSGSLGDCATFSFFGNKIITTGEGGMITTNDDDLAAKMRLLRGQGMDPNRRYWFPIVGFNYRMTNIQAAIGLAQLERVDEHLAARERVVGWYEQKLARLGNRVTKPHVALTGRHVFWMYTVRLGEGLSTTRDQVIKDLDALGIESRPVFHPMHIMPPYAHLATDDLKIAEACGVDGLNLPTHAGLTEADIDRVIAALDQVLV
# Sequence of UniProt P77488 (whole entry, looked up): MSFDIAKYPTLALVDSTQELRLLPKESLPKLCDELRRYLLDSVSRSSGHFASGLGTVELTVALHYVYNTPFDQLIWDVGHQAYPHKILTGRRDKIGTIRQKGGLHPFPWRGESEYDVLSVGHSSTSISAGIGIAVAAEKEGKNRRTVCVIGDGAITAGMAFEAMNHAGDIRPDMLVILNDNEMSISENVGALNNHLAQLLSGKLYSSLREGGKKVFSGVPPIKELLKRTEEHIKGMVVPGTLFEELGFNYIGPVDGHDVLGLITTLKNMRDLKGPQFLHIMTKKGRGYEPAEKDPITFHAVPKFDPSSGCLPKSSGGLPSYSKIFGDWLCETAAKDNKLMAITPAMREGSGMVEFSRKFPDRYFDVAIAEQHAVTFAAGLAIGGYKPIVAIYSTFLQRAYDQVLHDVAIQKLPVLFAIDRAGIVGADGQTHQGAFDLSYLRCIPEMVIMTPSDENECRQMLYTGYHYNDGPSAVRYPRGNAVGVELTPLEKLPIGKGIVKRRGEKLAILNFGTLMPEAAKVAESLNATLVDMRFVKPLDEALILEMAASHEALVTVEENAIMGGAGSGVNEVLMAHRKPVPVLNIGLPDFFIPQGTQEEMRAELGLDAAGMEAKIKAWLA
# Sequence of UniProt Q27593 (whole entry, looked up): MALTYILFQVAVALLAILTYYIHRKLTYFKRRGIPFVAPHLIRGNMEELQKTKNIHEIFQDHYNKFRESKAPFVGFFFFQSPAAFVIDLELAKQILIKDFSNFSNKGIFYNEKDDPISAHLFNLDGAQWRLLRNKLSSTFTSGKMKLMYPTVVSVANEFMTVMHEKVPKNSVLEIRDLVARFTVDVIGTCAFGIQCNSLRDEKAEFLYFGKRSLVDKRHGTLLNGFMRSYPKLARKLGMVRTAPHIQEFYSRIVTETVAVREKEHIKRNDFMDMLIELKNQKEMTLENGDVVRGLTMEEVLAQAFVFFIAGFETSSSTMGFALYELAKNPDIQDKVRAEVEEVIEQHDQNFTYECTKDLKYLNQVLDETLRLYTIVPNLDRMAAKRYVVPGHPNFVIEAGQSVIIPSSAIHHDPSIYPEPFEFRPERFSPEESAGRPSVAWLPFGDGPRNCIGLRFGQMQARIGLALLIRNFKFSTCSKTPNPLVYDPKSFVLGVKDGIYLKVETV
# Sequence of UniProt Q8KN33 (whole entry, looked up): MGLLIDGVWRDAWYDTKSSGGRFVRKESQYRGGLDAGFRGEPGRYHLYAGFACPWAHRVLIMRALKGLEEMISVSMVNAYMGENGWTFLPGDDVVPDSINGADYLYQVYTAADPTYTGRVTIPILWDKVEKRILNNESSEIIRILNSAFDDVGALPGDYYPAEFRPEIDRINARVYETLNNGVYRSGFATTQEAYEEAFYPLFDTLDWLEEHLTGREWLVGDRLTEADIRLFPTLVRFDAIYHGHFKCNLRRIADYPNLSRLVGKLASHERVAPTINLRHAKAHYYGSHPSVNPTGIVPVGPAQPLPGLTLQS
Molecule,substrate,test system,setting,kcat/Km
B1 (POLK W214Y/W392H),Nc1ccn([C@H]2C[C@H](O)[C@@H](COP(=O)(O)OP(=O)(O)OP(=O)(O)O)O2)c(=O)n1,,"pH 7.5, 23 °C, MgCl2 5 mM, added: G template",10000 M⁻¹ s⁻¹
"pcpF (Sphingobium chlorophenolicum, UniProt Q8KN33)",OCCS,,"pH 6.5, added: GS-TriCH, ascorbic acid 2 mM",1170 M⁻¹ s⁻¹
"putA (Bradyrhizobium diazoefficiens, UniProt Q89E26)",O=C(O)[C@@H]1CCC=N1,,"pH 7.5, 23 °C",8100 ± 822 M⁻¹ s⁻¹
B2 (cyc1 L72V),CC(C)=CCC/C(C)=C/CC/C(C)=C/CO[P@@](=O)(O)OP(=O)(O)O,,"pH 6.5, 30 °C, added: MgCl2 10 mM",70000 ± 20000 M⁻¹ s⁻¹
"AphC (Rhodococcus jostii, UniProt Q0S9X1)",CCCc1ccc(O)c(O)c1,,"pH 8, 25 °C, apparent, added: O2",920000 M⁻¹ s⁻¹
B3 (protein Y93W),Nc1ccn([C@@H]2O[C@H](CO)[C@@H](O)[C@H]2O)c(=O)n1,,"pH 7.2, 25 °C, KCl 100 mM, added: ATP 100–200 µM",6000 M⁻¹ s⁻¹
B4 (BaiA1),C[C@H](CCC(=O)SCCNC(=O)CCNC(=O)[C@H](O)C(C)(C)COP(=O)(O)OP(=O)(O)OC[C@H]1O[C@@H](n2cnc3c(N)ncnc32)[C@H](O)[C@@H]1OP(=O)(O)O)[C@H]1CC[C@H]2[C@@H]3CC[C@@H]4CC(=O)CC[C@]4(C)[C@H]3CC[C@]12C,,"pH 8.7, 37 °C, added: NADH",84300 M⁻¹ s⁻¹
B5 (enzyme),CC(C)(COP(=O)(O)OP(=O)(O)OC[C@H]1O[C@@H](n2cnc3c(N)ncnc32)[C@H](O)[C@@H]1OP(=O)(O)O)[C@@H](O)C(=O)NCCC(=O)NCCSC(=O)CCC(=O)O,,"pH 7.5, 37 °C",250000 ± 30000 M⁻¹ s⁻¹
"CYP6A8 (Drosophila melanogaster, UniProt Q27593)",CCCCCCCCCC(=O)O,DLPC,"pH 7.4, 37 °C, total hydroxylation, added: P450 reductase, NADPH",112 ± 28.3 M⁻¹ s⁻¹
"enzyme (Mortierella alpina, UniProt U5Y3C6)",CCCCCC/C=C\CCCCCCCC(=O)SCCNC(=O)CCNC(=O)[C@H](O)C(C)(C)COP(=O)(O)OP(=O)(O)OC[C@H]1O[C@@H](n2cnc3c(N)ncnc32)[C@H](O)[C@@H]1OP(=O)(O)O,,"pH 7.5, 28 °C",1500 M⁻¹ s⁻¹
B6 (vioC),N=C(N)NCCC[C@H](N)C(=O)O,,"pH 8, 30 °C, apparent, added: alpha-ketoglutarate 1.0 mM",12800 ± 3050 M⁻¹ s⁻¹
B7 (HCT R356E),NCc1ccc(O)c(O)c1,,"pH 8, pseudo-first-order, added: p-coumaroyl CoA",410 ± 51.8 M⁻¹ s⁻¹
B8 (Nudt8),CC(C)(COP(=O)(O)OP(=O)(O)OC[C@H]1O[C@@H](n2cnc3c(N)ncnc32)[C@H](O)[C@@H]1OP(=O)(O)O)[C@@H](O)C(=O)NCCC(=O)NCCSC(=O)CCC(=O)O,,"pH 8.5, added: 2 mM Mn2+",9500 M⁻¹ s⁻¹
"dxs (Escherichia coli, UniProt P77488)",O=C(O)C(=O)CO,,"pH 6.8, 37 °C",520 ± 40 M⁻¹ s⁻¹
B9 (SUOX P184A),O=S(O)O,,"pH 8, 25 °C, added: oxidized cyt c 400 µM",6.1e+06 M⁻¹ s⁻¹
B10 (GDP-perosamine synthase),C[C@H]1O[C@H](OP(=O)(O)OP(=O)(O)OC[C@H]2O[C@@H](n3cnc4c(=O)[nH]c(N)nc43)[C@H](O)[C@@H]2O)[C@@H](O)[C@@H](O)C1=O,,"pH 7.5, room temperature, NaCl 110 mM, ping-pong fit, added: L-glutamate cosubstrate; 100 µM PLP",210000 ± 110000 M⁻¹ s⁻¹

# Some of these lines once more:
Molecule,substrate,test system,setting,kcat/Km
B4 (BaiA1),C[C@H](CCC(=O)SCCNC(=O)CCNC(=O)[C@H](O)C(C)(C)COP(=O)(O)OP(=O)(O)OC[C@H]1O[C@@H](n2cnc3c(N)ncnc32)[C@H](O)[C@@H]1OP(=O)(O)O)[C@H]1CC[C@H]2[C@@H]3CC[C@@H]4CC(=O)CC[C@]4(C)[C@H]3CC[C@]12C,,"pH 8.7, 37 °C, added: NADH",84300 M⁻¹ s⁻¹
